Measurements of several laboratories.
Lines come from different studies, so protocols differ. “And” joins repeats or separate records; there may be more than shown. ± gives the spread as reported.
Target: Transporter (Slc6a2, Rattus norvegicus, UniProt Q63380)

COC(=O)C(c1ccccc1)C1CCCCN1 (stereo not shown) — IC50 (rat): 0.0828 µM and 0.083 µM
CNC(C)C(=O)c1cccc(C(F)(F)F)c1 (stereo not shown) — EC50 (releaser): 0.37 µM
CCCC(C(=O)c1ccc2c(c1)OCO2)N1CCCC1 (racemic) — IC50 (transporter uptake, inhibitor, radiometric): 0.0168 µM
CCN(CC)c1ccc2c(-c3ccc(S(=O)(=O)NCCCCCC(=O)NCCN4C5CCC4[C@@H](C(=O)OC)[C@@H](c4ccc(Cl)c(Cl)c4)C5)cc3S(=O)(=O)[O-])c3ccc(=[N+](CC)CC)cc-3oc2c1 (stereo partly shown) — Ki (ligand displacement, radioligand; cell membranes): 0.079 µM
CCC[C@@H](C(=O)c1ccccc1)N1CCCC1 — IC50 (transporter uptake, inhibitor, radiometric): 0.01 µM
CC(C)N(C)CCc1c[nH]c2ccccc12 — IC50 (transporter uptake, inhibitor, radiometric): > 10 µM
CNC(C)C(=O)c1ccc2c(c1)OCO2 (stereo not shown) — IC50: 0.712 ± 0.053 µM
COc1ccc2[nH]cc(CCNC(C)C)c2c1 — IC50 (transporter uptake, inhibitor, radiometric): > 10 µM
CNC(C)C(=O)c1ccc(C(F)(F)F)cc1 (stereo not shown) — EC50 (substrate release, releaser; rat brain synaptosomes; added: [3H]MPP+): 0.9 µM
CC(C)NCCc1c[nH]c2ccccc12 — IC50 (transporter uptake, inhibitor, radiometric): > 10 µM
CNC(C)C(=O)c1ccccc1 (stereo not shown) — EC50 (substrate release, releaser; rat brain synaptosomes; added: [3H]MPP+): 0.022 µM
CCCC(NC)C(=O)c1ccc2c(c1)OCO2 (stereo not shown) — IC50 (transporter uptake, inhibitor, radiometric): 0.401 µM
CCN(CC)CCc1c[nH]c2ccc(OC)cc12 — IC50 (transporter uptake, inhibitor, radiometric): > 10 µM
Cc1cccc(C2OCCNC2C)c1 (stereo not shown) — IC50 (inhibitor): 5.2 µM
CC(C)N(CCc1c[nH]c2ccccc12)C(C)C — IC50 (transporter uptake, inhibitor, radiometric): > 10 µM
CN1[C@H]2CC[C@@H]1[C@@H](C(=O)N1CCCC1)[C@@H](c1ccc(I)cc1)C2 — IC50 (reuptake; rat brain synaptosomes): 0.021 µM

For quick reference, copied from above:
CC(C)N(C)CCc1c[nH]c2ccccc12 — IC50 (transporter uptake, inhibitor, radiometric): > 10 µM
